# Assay results of several laboratories.
# Numbered parts are unrelated; each lists some results of a single study. Values joined by “and” are separate records of one study, mostly repeats; a detail may differ.
# UniProt Q9UJQ4, sequence (whole entry, looked up): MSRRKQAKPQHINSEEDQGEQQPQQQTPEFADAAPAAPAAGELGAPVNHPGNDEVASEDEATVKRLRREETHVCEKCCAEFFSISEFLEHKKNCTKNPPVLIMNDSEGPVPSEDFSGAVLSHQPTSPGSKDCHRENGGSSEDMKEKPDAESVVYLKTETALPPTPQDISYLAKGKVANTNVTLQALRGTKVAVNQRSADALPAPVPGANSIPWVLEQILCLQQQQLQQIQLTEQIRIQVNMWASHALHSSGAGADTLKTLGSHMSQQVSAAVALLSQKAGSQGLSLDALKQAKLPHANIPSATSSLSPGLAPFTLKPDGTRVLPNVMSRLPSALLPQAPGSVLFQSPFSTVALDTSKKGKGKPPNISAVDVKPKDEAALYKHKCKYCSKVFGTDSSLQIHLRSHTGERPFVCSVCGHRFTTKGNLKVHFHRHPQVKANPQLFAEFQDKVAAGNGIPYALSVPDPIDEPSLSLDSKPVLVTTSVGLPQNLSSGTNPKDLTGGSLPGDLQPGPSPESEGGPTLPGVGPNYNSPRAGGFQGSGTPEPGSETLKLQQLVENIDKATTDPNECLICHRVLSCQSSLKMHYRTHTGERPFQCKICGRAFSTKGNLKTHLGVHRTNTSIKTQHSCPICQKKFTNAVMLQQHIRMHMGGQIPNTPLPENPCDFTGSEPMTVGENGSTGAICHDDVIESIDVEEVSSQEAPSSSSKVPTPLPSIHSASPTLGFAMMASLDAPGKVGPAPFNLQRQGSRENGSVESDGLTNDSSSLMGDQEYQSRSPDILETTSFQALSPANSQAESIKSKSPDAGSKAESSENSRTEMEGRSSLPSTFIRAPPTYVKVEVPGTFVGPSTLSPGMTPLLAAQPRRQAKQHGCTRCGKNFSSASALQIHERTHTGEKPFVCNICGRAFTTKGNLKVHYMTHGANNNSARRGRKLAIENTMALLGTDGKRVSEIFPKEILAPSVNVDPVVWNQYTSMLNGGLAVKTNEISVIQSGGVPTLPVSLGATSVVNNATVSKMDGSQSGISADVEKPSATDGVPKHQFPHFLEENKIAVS
# UniProt P15170, sequence (whole entry, looked up): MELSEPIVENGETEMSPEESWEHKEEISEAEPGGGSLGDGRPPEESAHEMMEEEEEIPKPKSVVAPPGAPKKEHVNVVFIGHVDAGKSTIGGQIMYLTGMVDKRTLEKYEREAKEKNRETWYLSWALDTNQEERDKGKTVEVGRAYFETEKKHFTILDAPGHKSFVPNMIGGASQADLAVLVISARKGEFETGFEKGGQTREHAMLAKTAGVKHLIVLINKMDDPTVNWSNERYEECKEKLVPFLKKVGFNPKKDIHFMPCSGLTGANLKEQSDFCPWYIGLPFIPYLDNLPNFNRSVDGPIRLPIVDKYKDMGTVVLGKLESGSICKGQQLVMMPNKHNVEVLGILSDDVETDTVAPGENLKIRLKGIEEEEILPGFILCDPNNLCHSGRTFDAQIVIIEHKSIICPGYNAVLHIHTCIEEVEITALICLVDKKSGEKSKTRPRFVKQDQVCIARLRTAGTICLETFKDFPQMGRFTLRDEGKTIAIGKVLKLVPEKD
# UniProt P41143, sequence (whole entry, looked up): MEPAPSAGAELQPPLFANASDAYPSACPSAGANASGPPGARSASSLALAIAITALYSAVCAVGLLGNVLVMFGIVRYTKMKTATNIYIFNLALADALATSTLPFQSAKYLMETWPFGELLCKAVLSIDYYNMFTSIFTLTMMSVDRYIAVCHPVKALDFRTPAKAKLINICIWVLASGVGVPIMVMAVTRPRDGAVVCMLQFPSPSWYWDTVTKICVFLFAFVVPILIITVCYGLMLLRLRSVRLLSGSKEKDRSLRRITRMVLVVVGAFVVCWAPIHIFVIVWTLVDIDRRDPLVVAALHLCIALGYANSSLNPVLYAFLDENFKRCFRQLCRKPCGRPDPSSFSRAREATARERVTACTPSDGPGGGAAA
# UniProt Q13422, sequence (whole entry, looked up): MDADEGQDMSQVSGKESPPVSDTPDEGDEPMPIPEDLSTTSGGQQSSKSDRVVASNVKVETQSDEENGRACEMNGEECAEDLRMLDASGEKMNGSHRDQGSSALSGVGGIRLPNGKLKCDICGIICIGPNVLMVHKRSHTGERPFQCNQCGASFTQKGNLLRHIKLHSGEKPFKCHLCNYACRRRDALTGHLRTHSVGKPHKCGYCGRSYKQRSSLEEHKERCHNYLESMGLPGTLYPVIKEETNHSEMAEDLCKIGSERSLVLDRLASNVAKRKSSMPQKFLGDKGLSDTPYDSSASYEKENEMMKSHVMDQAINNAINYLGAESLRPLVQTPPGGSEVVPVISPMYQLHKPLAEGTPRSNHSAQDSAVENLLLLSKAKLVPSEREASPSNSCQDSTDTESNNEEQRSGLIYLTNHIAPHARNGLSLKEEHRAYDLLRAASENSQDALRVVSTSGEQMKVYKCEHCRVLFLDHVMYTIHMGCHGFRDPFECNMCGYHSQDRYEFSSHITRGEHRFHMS
# UniProt P35372, sequence (whole entry, looked up): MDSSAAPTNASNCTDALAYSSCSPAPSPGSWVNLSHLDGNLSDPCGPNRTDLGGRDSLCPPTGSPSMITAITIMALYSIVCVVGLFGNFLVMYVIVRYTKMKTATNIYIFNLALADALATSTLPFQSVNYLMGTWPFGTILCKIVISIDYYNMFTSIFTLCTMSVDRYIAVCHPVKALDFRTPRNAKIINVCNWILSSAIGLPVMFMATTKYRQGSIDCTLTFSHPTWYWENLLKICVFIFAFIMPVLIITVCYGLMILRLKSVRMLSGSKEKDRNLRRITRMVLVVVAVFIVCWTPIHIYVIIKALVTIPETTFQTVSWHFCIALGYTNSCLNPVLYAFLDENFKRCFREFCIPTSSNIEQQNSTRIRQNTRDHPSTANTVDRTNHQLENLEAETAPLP

# Set 1 — effect on: binding; method: HTRF; concentration: 111.11 nM
# Target: Membrane-associated tyrosine- and threonine-specific cdc2-inhibitory kinase (PKMYT1, Homo sapiens, UniProt Q99640)
# Construct (Q99640 1-499): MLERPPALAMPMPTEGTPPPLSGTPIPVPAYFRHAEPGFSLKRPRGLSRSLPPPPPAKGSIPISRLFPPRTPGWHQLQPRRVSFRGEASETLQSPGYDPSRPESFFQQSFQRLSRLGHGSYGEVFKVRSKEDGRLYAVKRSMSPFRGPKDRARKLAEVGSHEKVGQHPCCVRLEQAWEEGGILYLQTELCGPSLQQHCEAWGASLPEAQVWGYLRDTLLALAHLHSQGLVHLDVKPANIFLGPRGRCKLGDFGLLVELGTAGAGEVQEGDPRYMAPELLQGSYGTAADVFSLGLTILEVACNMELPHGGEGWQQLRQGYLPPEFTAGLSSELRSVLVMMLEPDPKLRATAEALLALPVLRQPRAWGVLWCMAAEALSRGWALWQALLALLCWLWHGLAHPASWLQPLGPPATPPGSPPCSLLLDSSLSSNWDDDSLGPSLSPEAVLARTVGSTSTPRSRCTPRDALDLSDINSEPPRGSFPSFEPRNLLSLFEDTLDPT
SMILES,inhibition
Cc1ccc(O)c(C)c1-c1cnc2[nH]c(-c3cnc(N4CCC(CN5CCN(c6ccc(N7CCC(=O)NC7=O)cc6F)CC5)CC4)nc3)cc2c1C#N,98.1%
Cc1ccc(O)c(C)c1-c1cnc2[nH]c(-c3cnc(N4CCC(CN5CCN(c6ccc(C(=O)NC7CCC(=O)NC7=O)c(F)c6)CC5)CC4)nc3)cc2c1C#N (racemic),98.2% and 98.3%
Cc1ccc(O)c(C)c1-c1cnc2[nH]c(-c3cnc(N4CCC(CN5CCN(c6ccc7c8c(cccc68)C(=O)N7C6CCC(=O)NC6=O)CC5)CC4)nc3)cc2c1C#N (racemic),96.5% and 96.4%

# Set 2 — organism: Staphylococcus aureus; strain: USA300; concentration: 2 x MIC
# Structure (SMILES): CCCCC[C@@H]1CC(=O)N[C@@H](C(C)C)C(=O)N[C@H](CCC(=O)O)C(=O)N[C@@H](CCCNC(=N)N)C(=O)NCC(=O)N2CCC[C@H]2C(=O)N[C@@H](CC(C)C)C(=O)N[C@H](CCC(N)=O)C(=O)N[C@@H](CCC(=O)O)C(=O)N[C@H](Cc2ccc(O)cc2)C(=O)N[C@H](Cc2c[nH]c3ccccc23)C(=O)NCCCC(=O)O1
setting,viable cells
30 min,1900 CFU/mL and 2100 CFU/mL and 2000 CFU/mL
60 min,1500 CFU/mL and 1300 CFU/mL and 1400 CFU/mL
360 min,400 CFU/mL and 500 CFU/mL and 300 CFU/mL
120 min,1000 CFU/mL and 800 CFU/mL and 1200 CFU/mL

# Set 3 — action: degrader; method: HiBiT; cells: HEK293
# Compound: Cn1cc(-c2cccc(CN3CCC4(CC3)COc3c4ccc4c3CN([C@@H]3CCC(=O)NC3=O)C4=O)c2)cn1
# Zinc finger protein Aiolos: Zinc finger protein Aiolos (Homo sapiens, UniProt Q9UKT9)
# UniProt Q9UKT9, sequence (whole entry, looked up): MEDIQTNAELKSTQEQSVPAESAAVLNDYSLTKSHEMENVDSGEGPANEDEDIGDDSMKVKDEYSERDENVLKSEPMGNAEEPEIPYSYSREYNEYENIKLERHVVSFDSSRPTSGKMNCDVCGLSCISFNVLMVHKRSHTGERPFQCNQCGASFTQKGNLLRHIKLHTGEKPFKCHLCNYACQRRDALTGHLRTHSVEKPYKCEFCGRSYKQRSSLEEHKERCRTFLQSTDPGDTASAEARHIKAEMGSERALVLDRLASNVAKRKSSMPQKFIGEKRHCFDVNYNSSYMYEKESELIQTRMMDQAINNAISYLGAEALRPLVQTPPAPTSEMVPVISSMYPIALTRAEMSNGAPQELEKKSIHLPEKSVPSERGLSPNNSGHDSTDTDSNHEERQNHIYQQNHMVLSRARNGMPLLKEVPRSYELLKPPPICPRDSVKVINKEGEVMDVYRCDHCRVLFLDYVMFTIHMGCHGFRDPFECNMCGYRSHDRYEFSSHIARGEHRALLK
target,setting,remaining protein
Zinc finger protein Aiolos,41.15 nM,96.9% and 94.9%
Zinc finger protein Aiolos,4.572 nM,101% and 105%
"DNA-binding protein Ikaros (Homo sapiens, UniProt Q13422)",123.5 nM,98.6% and 96.8%
Zinc finger protein Aiolos,123.5 nM,95.2% and 96.8%
"GSPT1 (Homo sapiens, UniProt P15170)",13.72 nM,102% and 99.2%
"Sal-like protein 4 (SALL4, Homo sapiens, UniProt Q9UJQ4)",0.1694 nM,107% and 105%

# Further values, each from its own experiment
SMILES,target,assay,endpoint,value
NCCCCCCCCN1CCC23c4c5ccc(O)c4OC2c2nc4ccccc4cc2CC3(O)C1C5 (stereo not shown),"OPRD1 (Homo sapiens, UniProt P41143)","ligand displacement, radioligand",Ki,2.63 nM
N=C(N)NCCCCCCN1CCC23c4c5ccc(O)c4OC2c2nc4ccccc4cc2CC3(O)C1C5 (stereo not shown),"OPRM1 (Homo sapiens, UniProt P35372)",cell-free assay,Ki,69.2 nM
CCCCCCCCN1CCC23c4c5ccc(O)c4OC2c2nc4ccccc4cc2CC3(O)C1C5 (stereo not shown),"Delta-type opioid receptor, with β-arrestin1 (OPRD1, Homo sapiens, UniProt P41143)",agonist,EC50,2190 nM

# Excerpt of the above (set 3):
target,setting,remaining protein
"Sal-like protein 4 (SALL4, Homo sapiens, UniProt Q9UJQ4)",0.1694 nM,107% and 105%
